Earlier results as cited in several papers.
Protocols differ between the studies behind these lines. Several values in a cell are separate wells, animals, samples, runs or records. ± marks the error that the study gave. ≈ marks a conversion by molar mass, not a printed value.
Chain of UniProt Q9BQI3 (whole entry, looked up): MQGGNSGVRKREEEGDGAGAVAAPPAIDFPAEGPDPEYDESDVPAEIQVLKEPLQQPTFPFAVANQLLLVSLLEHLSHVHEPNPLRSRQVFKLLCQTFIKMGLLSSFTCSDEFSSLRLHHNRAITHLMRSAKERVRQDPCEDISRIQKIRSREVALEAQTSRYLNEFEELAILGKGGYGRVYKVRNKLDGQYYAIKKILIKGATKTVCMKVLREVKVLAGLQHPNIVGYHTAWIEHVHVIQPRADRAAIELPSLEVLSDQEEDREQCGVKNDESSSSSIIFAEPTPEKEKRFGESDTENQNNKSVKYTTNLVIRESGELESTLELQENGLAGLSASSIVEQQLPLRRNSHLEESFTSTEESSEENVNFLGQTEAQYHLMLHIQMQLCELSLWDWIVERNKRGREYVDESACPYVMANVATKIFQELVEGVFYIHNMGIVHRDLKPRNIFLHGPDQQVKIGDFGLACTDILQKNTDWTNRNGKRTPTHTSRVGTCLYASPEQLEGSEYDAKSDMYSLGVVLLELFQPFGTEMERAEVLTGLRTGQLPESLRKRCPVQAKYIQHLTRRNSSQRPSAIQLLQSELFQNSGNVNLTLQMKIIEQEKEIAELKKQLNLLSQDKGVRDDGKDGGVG

With `Cc1ccc(C)c(OCCCC(C)(C)C(=O)O)c1` the triglyceride decrease was 59.3% (HIV-negative individuals, plasma; concentration not given).
For `COCCCOc1ccnc(C[S+]([O-])c2nc3ccccc3[nH]2)c1C` (centres unmarked), “onset of antisecretory effect” read ≤ 1 h (gastric acid secretion; human; concentration not given).
`O=C(c1cccnc1-c1ccncc1)N1CCC(O)(Cc2ccccc2)CC1` — result for “seizure frequency reduction”: 36.4% (human adults; dose not given, open-label maintenance phase).
For `CCC(C)c1nccnc1OC` (centres unmarked), “odour detection threshold” read 0.003 µg/kg (human, water).
`CC(C)(C)c1cc(C(C)(C)C)c(NC(=O)c2c[nH]c3ccccc3c2=O)cc1O` gave an EC50 of 0.048 mg/L (≈ 0.122 µM) (sweat chloride reduction; human cystic fibrosis patients; clinical exposure-response).
`Cc1cc(-c2nccc3c2ccn3CC(=O)Nc2ccc(-c3cnccn3)cn2)ccn1` — result for “dose inhibiting fibrosis”: ≥ 10 mg/kg (item: Ashcroft score; rat, bleomycin-induced pulmonary fibrosis; 10 days once daily).
The MIC of `CNC(C)C1CCC(N)C(OC2C(N)CC(N)C(OC3OCC(C)(O)C(NC)C3O)C2O)O1` (centres unmarked) is reported as 8 mg/L (≈ 16.8 µM) (Enterobacter cloacae; clinical isolate RKI-No_348/15).
`CCc1cn2c(C3C(C(=O)OC)=C(C)NC(C)=C3C(=O)OC)c(-c3cc(OC)ccc3OC)nc2s1` gave an inhibition of 29 ± 2.4% (calcium-induced contraction; guinea pig aortic strip; 50 µM, together with: K+ 80 mM depolarisation).
`Nc1cccc2c1C(=O)N(C1CCC(=O)NC1=O)C2=O` (centres unmarked): “partial response or better rate” 51% (relapsed refractory multiple myeloma patients; dose not given).
`C[N+]1(C)CCC(OC(=O)C(O)(c2ccccc2)C2CCCC2)C1` (centres unmarked) — result for “placebo-corrected trough FEV1 change”: 141 mL (COPD patients; inhaled, 100 µg once daily, 24 h postdose, dosing day 7; baseline: baseline).
Under “CR with partial hematologic recovery rate”, `CC1(C)CCC(CN2CCN(c3ccc(C(=O)NS(=O)(=O)c4ccc(NCC5CCOCC5)c([N+](=O)[O-])c4)c(Oc4cnc5[nH]ccc5c4)c3)CC2)=C(c2ccc(Cl)cc2)C1` is recorded as 24% (human, newly diagnosed AML; concentration not given, together with: azacitidine).
`CCc1c2c(nc3ccc(OC(=O)N4CCC(N5CCCCC5)CC4)cc13)-c1cc3c(c(=O)n1C2)COC(=O)[C@]3(O)CC` gave an overall survival of 7.8 months (human gastric or GEJ adenocarcinoma; dose not given, trial).
`CN(C)c1cccc2c1C#Cc1cccc(N(C)C)c1C#C2`: “second-order rate constant” 0.039 M⁻¹ s⁻¹ and 0.0387 M⁻¹ s⁻¹ (SPAAC cycloaddition, substrate, UV spectroscopy; methanol; room temperature, mean of 2 runs, together with: benzyl azide 100 mM).
`Nc1cc(C(F)(F)F)c(-c2nc(N3CCOCC3)nc(N3CCOCC3)n2)cn1` gave a remaining activity of 100% (EIF2AK1 (Homo sapiens, UniProt Q9BQI3); enzyme activity; 10 µM; baseline: untreated).
For `COc1cnccn1`, “odour detection threshold” read 0.7 µg/kg (human, water).
For `Cc1c(C(=O)Nc2ccc(N3C[C@@H](C)O[C@@H](C)C3)nc2)cccc1-c1ccc(OC(F)(F)F)cc1`, “time to nadir” read ~72 h (item: Gli1 mRNA, stromal; mouse; 40 mg/kg/day, daily dosing).
Under “placebo-corrected trough FEV1 change”, `CCc1cc2c(cc1CC)CC(NC[C@H](O)c1ccc(O)c3[nH]c(=O)ccc13)C2` is recorded as 140 mL (COPD patients; inhaled, 300 µg once daily, 24 h postdose, dosing day 1; baseline: baseline).
`CCS(=O)(=O)N1CC(CC#N)(n2cc(-c3ncnc4[nH]ccc34)cn2)C1`: “ACR20 response difference” 30.8 percentage points (rheumatoid arthritis patients; 4 mg; baseline: placebo).
`C=C1[C@H](CO)[C@@H](O)C[C@@H]1n1cnc2c(=O)[nH]c(N)nc21` has an HBsAg reduction of 0.14 log10 IU/mL (chronic hepatitis B patients; dose not given, 48 months, together with: lamivudine; baseline: baseline).
With `CC(=O)Oc1ccc(C(c2ccc(OC(C)=O)cc2)c2ccccn2)cc1` the AC50 was 48.3 µM (antioxidant response element activation, Tox21 HTS).
The %T/C of `CC(F)(F)c1cc(F)ccc1-c1sc2cc(O)ccc2c1Oc1ccc(/C=C/C(=O)O)cc1` is reported as 13% (MCF7, mouse, MCF7 orthotopic xenograft; 10 mg/kg once daily, day 62, single agent).
Under “HIV RNA reduction”, `COC[C@@H](c1ccc(C(F)(F)F)cc1)N1CCN(C2(C)CCN(C(=O)c3c(C)ncnc3C)CC2)C[C@@H]1C` is recorded as 1.34 log10 copies/mL (treatment-naive HIV subjects; 75 mg once daily, day 14, monotherapy without ritonavir).
`CC1(C)S[C@@H]2[C@H](NC(=O)[C@H](N)c3ccccc3)C(=O)N2[C@H]1C(=O)O` has an MIC of > 16 mg/L (Enterobacter cloacae; clinical isolate RKI-No_5/14).

A few entries again:
For `CCC(C)c1nccnc1OC` (centres unmarked), “odour detection threshold” read 0.003 µg/kg (human, water).
`CC(C)(C)c1cc(C(C)(C)C)c(NC(=O)c2c[nH]c3ccccc3c2=O)cc1O` gave an EC50 of 0.048 mg/L (≈ 0.122 µM) (sweat chloride reduction; human cystic fibrosis patients; clinical exposure-response).
